{"data": "Assay results collected from several papers", "note": "Numbered parts are unrelated; each lists some results of a single study.", "chain of UniProt Q9BUB5 (whole entry, looked up)": "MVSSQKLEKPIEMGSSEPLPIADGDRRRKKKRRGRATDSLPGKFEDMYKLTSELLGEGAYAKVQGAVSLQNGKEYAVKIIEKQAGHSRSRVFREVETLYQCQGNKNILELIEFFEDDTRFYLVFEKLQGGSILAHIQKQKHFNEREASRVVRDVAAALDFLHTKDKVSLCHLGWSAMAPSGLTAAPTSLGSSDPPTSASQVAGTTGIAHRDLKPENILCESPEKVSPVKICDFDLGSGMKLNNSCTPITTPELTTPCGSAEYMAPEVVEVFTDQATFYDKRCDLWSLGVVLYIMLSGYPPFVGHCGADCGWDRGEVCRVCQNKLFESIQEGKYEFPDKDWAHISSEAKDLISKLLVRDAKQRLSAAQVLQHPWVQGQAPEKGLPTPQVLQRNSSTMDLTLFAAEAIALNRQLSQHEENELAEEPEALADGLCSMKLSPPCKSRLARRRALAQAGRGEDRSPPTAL"}
{"data": "Set 1", "target": "RNA binding protein fox-1 homolog 2, RRM domain, GST-SBP tag (RBFOX2, Homo sapiens, UniProt O43251-10, residues 100-194)", "technique": "RNA Bind-n-Seq", "form": "RNA", "sample": "in vitro", "concentration": "365 nM", "setting": "natural RNA segment, single round, ends assumed", "baseline": "no-protein control", "direction": "higher = stronger binding", "constant ends, left off below": "GGGAGUUCUACAGUCCGACGAUC … UGGAAUUCUCGGGUGCCAA", "Construct (chain)": "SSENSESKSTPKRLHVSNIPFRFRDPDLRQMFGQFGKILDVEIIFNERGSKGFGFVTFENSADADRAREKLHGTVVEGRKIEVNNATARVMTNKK"}
{"Strand": "UCGAAGUGCCCAGAUUUGACUCCUAAGUUCUAGGAGACUGUAGCGCAGGGUCUGUCAACCUUAGCACUAUUGGCAUUUGGGGCUGGGUAAUUCUUUCUUGUGGGGGCCGU", "RBNS enrichment (R)": 0.433}
{"Strand": "GAUGUGUUGGGCCUUUUCUAGGAAAGGGACCAAGCCCCUUCAAGUGGGGAGGCCCAGAGUUACCUGCCAUAUCCCACAUAGUGGAGGCGUUCCCGCAGCCGCCACCACUA", "RBNS enrichment (R)": 0.421}
{"Strand": "UUGCCGAGGCUUCCUGCUAGCAACCACACUGAAGAGAUCGAUGCCUCCUUUCAAGCUAGCCAAGUUUUCUGCGAGCCUUCAGAGCUAGGAGGGCACCCUAGGCUCUGGGA", "RBNS enrichment (R)": 0.501}
{"Strand": "UCUUGUAAAUUUUUAGAAGACCUCACAGAACUUUACAGUUUAUUUUUCUCGGCCAACACAUUAAAACCAUUCUUGGAUUUCAAGUAGCCAACUUUGCCUUUUAUGUAUUC", "RBNS enrichment (R)": 0.361}
{"Strand": "AUGGUCACACACCAGCACUUUAUACACUUCUGGCUCACAGGAAAGUGUCUGCAGUAGGGGACCCAGAGUCCCAGGCCCCUGGAGUUGUUUUCGGCAGGGGCCUUGUCUCU", "RBNS enrichment (R)": 0.304}
{"Strand": "AAGAGGCCUUCCUCCCUCCCUGCUCCACAGGCCCCCUCAGUCCCUGGGAAAGUAUGCACAAAAGAGACUCCCUACAUAGCUCAGAGACUACAGUGCCAAAAUGCCCCAGA", "RBNS enrichment (R)": 1.24}
{"Strand": "CUUCUCAGGACAAUGAAUCCUUCCUGUUUUUCUUUUUAUGCCACACAGUGCAUUGUUUUUCUACCUGCUUGUCUUAUUUUUAGAAUAAUUUAGAAAAACAACAAAGGCUG", "RBNS enrichment (R)": 4.16}
{"Strand": "ACUGUGCUCAGCUUUGAAAAGAACAAAGAUUUAUACCUCUGUACAUGUGGAUAGAUAGAAGUGUCCUGUUUUGAUACUAAUUUUGAAAGUUGAUUAUCUUCUCUUGAUAU", "RBNS enrichment (R)": 0.386}
{"data": "Set 2", "target": "Prothrombin, mature alpha-thrombin (F2, Homo sapiens, UniProt P00734)", "technique": "aptamer microarray, sandwich", "form": "DNA with 2'F-ANA", "sample": "in vitro", "concentration": "200 nM", "setting": "whole 15-mer aptamer, many near background", "added": "Cy3 exosite-II aptamer, 400 nM", "direction": "higher = stronger binding", "strand": "GGTTGGTGTGGTTGG"}
{"Modification": "2'F-ANA at 1 2 3 4 5 6 7 9 12 15", "mean fluorescence intensity [a.u.]": 108}
{"Modification": "2'F-ANA at 4 5 6 7 8 9 10 11 13 14", "mean fluorescence intensity [a.u.]": 62.8}
{"Modification": "2'F-ANA at 5 6 9 11 13 14 15", "mean fluorescence intensity [a.u.]": 52.5}
{"Modification": "2'F-ANA at 2 4 7 9 11 12 13 14", "mean fluorescence intensity [a.u.]": 102}
{"Modification": "2'F-ANA at 1 4 5 6 7 9 12 13 15", "mean fluorescence intensity [a.u.]": 66.5}
{"Modification": "2'F-ANA at 2 3 6 7 8 10 11 12", "mean fluorescence intensity [a.u.]": 387}
{"Modification": "2'F-ANA at 3 4 5 6 10 11 12", "mean fluorescence intensity [a.u.]": 54.7}
{"Modification": "2'F-ANA at 3 6 7 8 9 10 11 12 13 14 15", "mean fluorescence intensity [a.u.]": 352}
{"data": "Set 3", "target": "RING finger protein unkempt homolog, zinc fingers 1-6, GST-SBP tag (UNK, Homo sapiens, UniProt Q9C0B0, residues 30-357)", "technique": "RNA Bind-n-Seq", "form": "RNA", "sample": "in vitro", "concentration": "not given", "setting": "RNA with constant flanks, human-mouse chimeric sites, ends assumed", "baseline": "input RNA pool", "direction": "higher = stronger binding", "constant ends, left off below": "GGGAGUUCUACAGUCCGACGAUC … CAACAGAGGAUUGAGCAUCA", "chain of UniProt Q9C0B0 (30-357, looked up)": "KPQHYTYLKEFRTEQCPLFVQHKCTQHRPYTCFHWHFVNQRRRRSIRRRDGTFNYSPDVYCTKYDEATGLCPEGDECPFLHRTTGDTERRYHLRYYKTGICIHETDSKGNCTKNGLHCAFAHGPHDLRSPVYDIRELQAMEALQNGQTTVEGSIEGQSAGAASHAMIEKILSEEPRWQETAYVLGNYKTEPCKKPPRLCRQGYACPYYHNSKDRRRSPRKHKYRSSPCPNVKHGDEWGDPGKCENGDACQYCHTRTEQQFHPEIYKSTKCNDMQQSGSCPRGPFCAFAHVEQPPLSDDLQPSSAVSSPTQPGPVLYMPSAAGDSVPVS"}
{"Strand": "UGUAGUUUCGCGGUUCAGGCUUUGUGUGUAGUUCACUUACGGUAUUAAAUUAUUAUUCUGCUUAGCUUAUAAUAAGGAUAAUUGCAUUUAAAGAGGUUACUGAAUGUUGUUAUUGUUCUU", "bound/input enrichment": "1.39 ratio"}
{"Strand": "CGCUGGCCCAAGCUGAUGUAAAUGUUUGGCCUCCAUCUCUCAGGCACGUGUGCCUUCUCUUAGUCCCUGUUUUCGGGAUGUUAUGAACAGUAUCAUGGUGGUUUGAAAGCACCAGCUUUG", "bound/input enrichment": "0.132 ratio"}
{"Strand": "CCCUCCCCGGGCCACCCACCCCUCCCGGCUCCCCGCCGAGAUCCAGGUUUCUUCUGUUUUCAUAGCAAGCCAGAACAAUGUUCUACGCACAUUUUGUCCUCAGUAAACGAGGGCCUCUGG", "bound/input enrichment": "1.52 ratio"}
{"Strand": "GGGGAGAAACCUUACGAAUGCGUUCAGUGUGGGAAAUCCUACAGUCAAAGCUCAAAUCUCUUCAGACAUCAGAGACGACACAAUGCAGAAAAACUUUUGAAUGUUGUGAAGGUUUAAGAA", "bound/input enrichment": "0.107 ratio"}
{"Strand": "ACUCAGAGAUUAUAUUCCCAAAGUGCUGGGAGUAAAGGUGUGGCCACCACACCUAACUUGAUGGAUAUAUAUUUUUUUUAAUAUGAAUCUUCCUGUUCUUCAUCCAGAGAAAGAUUUGUU", "bound/input enrichment": "0.427 ratio"}
{"Strand": "ACCUCCCCCUCCCGCCUCACCCCACCCCCGCUUUUUGGAAAGUUUUUGGCGUUUCUUUUCCUUCCCCAGUUAGAAUUAUUACAGUUUAGAGUCUAUGGGUCUAUCGAAGGGCUUGACGGA", "bound/input enrichment": "91.4 ratio"}
{"Strand": "GGACAUCUGUCAAAUUGUUAUGUUCCUGUGAAACAAGUGAACACUCUGAUACACUUCAUCUGCUUGUACAUCUGUAUGAUAGAGAAAUGUAAAUAUGAAUAUAUUUACAAUGUGUCACUU", "bound/input enrichment": "0.122 ratio"}
{"Strand": "CACGUGUCUGCAGUACUUGAUGUGGAUUACUCUCCCACUGGGAAGGAAUUUGUGUCUGCCAGCUUUGAUAAAUCUAUUAGAAUCUUUCCUGUGGACAAGAGCCGAAGCAGGGAAGUGUAU", "bound/input enrichment": "0.219 ratio"}
{"data": "Other studies, line by line"}
{"SMILES": "COc1cc2c(N3CCN(C(=O)Nc4ccc(OC(C)C)cc4)CC3)ncnc2cc1OCCCN1CCCCC1", "target": "MAP kinase-interacting serine/threonine-protein kinase 1 (MKNK1, Homo sapiens, UniProt Q9BUB5)", "assay": "enzyme activity, inhibitor", "setting": "0.5 µM", "how to read": "baseline: control", "quantity": "remaining activity", "value": "89.7%"}
